Assay results pooled from the literature.
Each numbered part is a random draw from the data of one study; scales do not carry over between parts. Changes are numbered by the printed parent chain.

Sample 1
Target: RNA binding protein fox-1 homolog 2, RRM domain, GST-SBP tag (RBFOX2, Homo sapiens, UniProt O43251-10, residues 100-194)
Method: RNA Bind-n-Seq
Molecule type: RNA
Medium: in vitro
Concentration: 365 nM
Notes: natural RNA segment, single round, ends assumed
Relative to: no-protein control
Reading: higher = stronger binding
Measurement: RBNS enrichment (R)
Shared flanks, not repeated: GGGAGUUCUACAGUCCGACGAUC … UGGAAUUCUCGGGUGCCAA
Target sequence (chain): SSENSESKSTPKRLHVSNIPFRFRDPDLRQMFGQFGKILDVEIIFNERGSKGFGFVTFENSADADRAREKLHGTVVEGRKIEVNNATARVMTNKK
AAGCGAAUUAAAACACAACAAAAAACCCCACCCCACAACCUUCAGGACAGUCUAUCUUAAAUUUCAUAUGAGAACUCCUUCCUCCCUUUGAAGAUCUGUCCAUAUUCAGG: 1.19
AGUUACUUCCUAGAUACCAACAGGGGUACAGGUAUUGAUUAAAGACGGCUGUUCCAAAUGGGAGAAAUUGGCCAAAAUAAAGGGGUUACAGGGCCCAUGCAAGUCCGAAA: 1
AACAGCUCAGCCCAGUCCUGGGCACAGACACUACACAAGGCAAUGCUGGAAUUGAAACAAUACUUUAAUACCGUUUAAGUUUGUUUCCUUUUUUUUUUUCCUCUUUUUUU: 0.393
AGGUCGUCCCCCACACAAACAUACCCCUUGCGCACCUUCUGCCUACUUUGAGCCGGAUCUGGCCUGUGACUAGAAGACCAACCCCUACGAGGAAAUGUGGAGCUCAACGU: 0.329
AAUUUGCCUUUACCUCACCAAAAAUGUCUAGUUUAAUCUUCCUGCCGUGCCCGCUGACUGUCUGGGCAGCCUUGCAGUGGGGGCUGAUGUGCUGUCUUAUUUUUGCUGUC: 0.733
CUAGUCCUGAAUUCCUAACUCUCCUGAGUGCUGAGAUUGUCAAGCACUGCAUUAAACCUGGCUGGUCUCUUGUCUUGACUUCCUAUAUCUUUGGCUCCUUCUGUCUCAGA: 0.727
AGGUUGAGAGUUUUGGAAUUGAUUCCAUGCUAAAUGUCAGUUACCAGUUUGGAUUGAUGAAAGUGAUUUUUCUGCUUUACCUUUUUCCUGUCAGAAAGGUUUUCCUCUGU: 0.471
AAGGGAGGCAGGCACCGUGGGAUUUGGGCUUGCUCUGCUUGGUCCCCAUGUGAUGCCCUGUGCUGUAAGAUAUCAGAAAGACCUGGAACAAGGCAAACUUUAUGUCCUCC: 0.483

Sample 2
Target: Sal-like protein 4, full length isoform B (SALL4, Homo sapiens, UniProt Q9UJQ4-2, residues 1-616)
Method: universal PBM
Molecule type: double-stranded DNA, one strand shown
Medium: in vitro
Concentration: not given
Notes: 8-mer, flanks averaged, mean of replicates
Reading: higher = stronger binding
Measurement: E-score
Residues (chain): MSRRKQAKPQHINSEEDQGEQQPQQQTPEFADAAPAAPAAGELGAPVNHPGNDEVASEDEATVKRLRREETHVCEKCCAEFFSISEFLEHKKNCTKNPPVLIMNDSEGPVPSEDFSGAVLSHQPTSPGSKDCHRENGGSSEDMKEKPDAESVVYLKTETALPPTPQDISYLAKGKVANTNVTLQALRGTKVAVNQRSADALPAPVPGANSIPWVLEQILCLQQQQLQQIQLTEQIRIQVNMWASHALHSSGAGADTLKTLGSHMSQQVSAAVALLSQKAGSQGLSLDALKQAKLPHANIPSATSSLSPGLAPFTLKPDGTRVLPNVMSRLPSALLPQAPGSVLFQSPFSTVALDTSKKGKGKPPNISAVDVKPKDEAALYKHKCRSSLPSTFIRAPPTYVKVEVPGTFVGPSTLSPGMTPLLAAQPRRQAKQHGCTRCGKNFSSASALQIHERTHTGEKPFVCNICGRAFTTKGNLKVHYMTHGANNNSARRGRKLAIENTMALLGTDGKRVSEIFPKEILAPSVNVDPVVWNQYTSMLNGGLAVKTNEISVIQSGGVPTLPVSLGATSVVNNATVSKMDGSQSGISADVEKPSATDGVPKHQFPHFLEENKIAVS
AAGTAGCC: -0.225
TAATGTAA: 0.294
GGAAGTAA: 0.1
AAGACCAT: 0.108
AATATCCT: 0.164
CGATTGAC: 0.0167
TCTACGAA: -0.00649
ACCCGGAT: -0.29
GAAAATAC: 0.0833
AACTGAGC: -0.276
CAGCGCGA: -0.211
ATTAGAAT: 0.255
CGATTCTC: 0.101
AGCACTTA: 0.0488
ATCGGAGC: -0.254
CGCCTCAC: -0.159
AAACAAAT: 0.299
ATTTCCGA: 0.191
ACGTAGTG: -0.075
GCTTCTAA: -0.0831
AATTACAT: 0.285
ACTCGGAA: -0.0415
AAAACGGG: -0.0285
GGCGATAC: -0.0237
CATGACCG: -0.165

Sample 3
Target: ABI1, truncated, D143A, DHFR fusion (Arabidopsis thaliana)
Method: DHFR PCA, deep sequencing
Medium: yeast
Notes: methotrexate growth selection, single substitutions
Together with: (+)-ABA 710 µM
Relative to: wild-type fitted maximum
Reading: higher = stronger binding
Measurement: relative binding score
Parent: PYL1, truncated, DHFR fusion (Arabidopsis thaliana); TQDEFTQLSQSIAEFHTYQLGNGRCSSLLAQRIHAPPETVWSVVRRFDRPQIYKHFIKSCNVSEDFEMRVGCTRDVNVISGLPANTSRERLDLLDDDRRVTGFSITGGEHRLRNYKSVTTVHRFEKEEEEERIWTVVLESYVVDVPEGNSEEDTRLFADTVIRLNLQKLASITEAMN
R99E: 67.6%
T17C: 92.8%
V62P: 92.6%
Y18C: 91.4%
R69P: 63.3%
R49Q: 105%
V40N: -45.7%
L164T: 107%
L94I: 106%
S26T: 102%
F47T: 6.8%
A30H: 105%
Q7R: 108%
S59F: 93.6%
N61T: 103%
H16G: 23.3%
R32S: 92.2%
V78D: 1.26%
E14T: 86.1%
V100S: 89%
H16K: 32.3%
L29E: 45%
S87W: 19.5%
G107A: 104%
H122G: 64.2%

Sample 4
Target: Interferon regulatory factor 7, full length, phosphomimetic (IRF7, Homo sapiens, UniProt Q92985, residues 1-503, S101K/S471D/S472D/S475D/S476D/S477D/S483D/S484D/S487D)
UniProt Q92985, sequence (whole entry, unmodified, looked up): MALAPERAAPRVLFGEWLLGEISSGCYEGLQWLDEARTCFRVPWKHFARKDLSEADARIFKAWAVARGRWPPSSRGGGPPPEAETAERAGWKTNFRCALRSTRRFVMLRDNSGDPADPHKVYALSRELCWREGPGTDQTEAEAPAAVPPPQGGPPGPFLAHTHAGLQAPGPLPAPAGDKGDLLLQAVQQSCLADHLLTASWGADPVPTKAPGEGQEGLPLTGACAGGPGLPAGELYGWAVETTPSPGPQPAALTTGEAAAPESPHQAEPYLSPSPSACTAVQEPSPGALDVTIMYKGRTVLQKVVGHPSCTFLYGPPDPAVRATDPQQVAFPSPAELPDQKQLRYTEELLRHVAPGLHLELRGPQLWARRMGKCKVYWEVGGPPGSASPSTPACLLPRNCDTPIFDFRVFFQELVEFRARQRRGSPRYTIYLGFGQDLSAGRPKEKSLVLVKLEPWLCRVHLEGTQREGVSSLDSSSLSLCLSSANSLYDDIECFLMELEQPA
Method: protein-binding microarray
Molecule type: double-stranded DNA, one strand shown
Medium: in vitro
Concentration: 250 nM
Notes: 60-bp whole probe
Together with: salmon DNA 0.4 mg/ml
Relative to: random background probes
Reading: higher = stronger binding
Measurement: log fluorescence
Shared flanks, not repeated: GCCTAGCAC … GTCTTGATTCGCTTGACGCTGCTG
TCAAGTGTTTTTCTCCTACTGTGCTAG: 0.322 z-score
AAGCTTCTTTTTTATTCTAAAGTGCTA: 0.708 z-score
GACGATATCAGTATAGAGACGTGCTAG: -0.124 z-score
GACGGACTGGGTATCGGGAAGTGCTAG: -0.625 z-score
TCATTTTTATTTTCTGAACTGTGCTAG: 1.32 z-score
TTAGGTATCGGGTCTCGGTTAGTGCTA: 2.36 z-score
TCATATTAGAGTCTCAAACTGTGCTAG: 0.635 z-score
TGGGATTTTCCCATGAGTCTGTGCTAG: 0.285 z-score
TTAGATTTCGGGACTGGTTTAGTGCTA: 0.596 z-score
AACGATTTCAGTCTCGAGACGTGCTAG: 0.913 z-score
TTAAAACTGGGGTATCGATTAGTGCTA: 0.446 z-score
TCAACTCTTCTTTTGCTACTGTGCTAG: 0.275 z-score
ATGCCCCCCAAGAGGGGCGGGTGCTAG: 0.619 z-score
TTAGGACTGGACTATCGTTTAGTGCTA: -0.34 z-score
TTAGGTTTCCTACTGCTTTGGTGCTAG: 1.13 z-score
GACGGTTTCGGTATCAGGACGTGCTAG: 10.1 z-score
TTAGGTCTCCTTTTTCTTTAGTGCTAG: 1.09 z-score
GACGAACTGACTTTCGAGACGTGCTAG: 0.0923 z-score
TCACCTTTTATATTGTAACTGTGCTAG: 0.898 z-score

Single results of other studies
Organism: Saccharomyces cerevisiae
Observed: binding
Method: competitive growth deep sequencing
Molecule type: peptide
Concentration: concentration not given
Reading: direction not given
REPARRLFLFGEE
growth enrichment score (cyclin D3-Cln2 fusion strain; Cln2 score subtracted): -0.0819

GSPLKKLFTSTGA
growth enrichment score (cyclin E1-Cln2 fusion strain; combined peptide libraries): 0.535

For quick reference, copied from above (sample 2):
AACTGAGC: -0.276
ATTTCCGA: 0.191
GGCGATAC: -0.0237
AAGTAGCC: -0.225
